Measured values from different studies.
Each line is one published result; not all experiments were run side by side. Several values in a cell are separate wells, animals, samples, runs or records. ± gives the spread as reported.

SMILES	assay	system	conditions	scale	measurement	result
CN(C(=O)n1cnc(-c2cccnc2)c1)[C@H]1CC[C@H](O)CC1	–	Wistar rat, pons	oral, 10 mg/kg of BIA 10-2474, 24 h, single dose	–	concentration	14.7 ± 0.6 ng/g
Cc1cc(-c2nccc3c2ccn3CC(=O)Nc2ccc(-c3cnccn3)cn2)ccn1	–	human, plasma	oral, 20 mg once daily, day 1, geometric mean	–	AUCtau	1.35 µM·h
CCN1/C(=C/C(C)=O)Sc2ccc(F)cc21	–	cynomolgus monkey	oral, 100 mg/kg, 4 h post-dose	–	diastolic blood pressure	77 ± 2 mmHg
Cn1c(=O)[nH]c(=O)c2[nH]cnc21	–	human, both sexes, cerebrospinal fluid	–	–	samples above LOQ	0%
CCC[C@@H]1C[C@@H](C(=O)N[C@@H]([C@H]2O[C@H](SC)[C@H](O)[C@@H](O)[C@H]2O)[C@@H](C)O)N(C)C1	starch gel membrane permeability	Gram-negative envelope surrogate	200 µM, 20 min, pH 7.4	–	amount permeated	0.7 nmol
COc1cccc2c1c(O)c(C(=O)N(C)c1ccc(C(F)(F)F)cc1)c(=O)n2C	–	mouse, CP model, serum	0.154 µmol/kg, 4 weeks	–	serum ALT	no effect
CO[C@H]1/C=C/O[C@@]2(C)Oc3c(C)c(O)c4c(O)c(c(/C=N/N5CCN(C)CC5)c(O)c4c3C2=O)NC(=O)/C(C)=C\C=C\[C@H](C)[C@H](O)[C@@H](C)[C@@H](O)[C@@H](C)[C@H](OC(C)=O)[C@@H]1C	starch gel membrane permeability	Gram-negative envelope surrogate	200 µM, 30 min, pH 7.4	–	amount permeated	1.1 nmol
OCc1nc2ccc(NCc3ccc(C(F)(F)F)cc3)cc2[nH]1	–	male Balb/c mice, kidney	oral, 10 mg/kg, 6 h	baseline: tissue over plasma	tissue/plasma ratio	12.3 ± 2
Cc1cc(Nc2cc3ncccc3c(N[C@@H]3C[C@H]4CC[C@@H](C3)N4CCC#N)n2)n[nH]1	–	healthy human subjects	oral, 300 mg, 14 days, multiple ascending dose	–	sneezing incidence	0%
O=C(O)CNC(=O)c1ccc(O)cc1	–	human plasma	mean	–	plasma concentration	6740 nM
C[C@H](NC(=O)/C(C#N)=C/c1cccc(Br)n1)c1ccccc1	LC-MS/MS	patients, plasma	oral, 1 mg/kg, cycle 1 day 8	–	AUC(all)	40 ng·h/mL
C[C@@H]1COCCN1c1cc(C2([S@](C)(=N)=O)CC2)nc(-c2cc[nH]c3nccc2-3)n1	–	Japanese advanced solid tumour patients	oral, 240 mg twice daily, CTCAE grade ≥3	–	Diarrhea incidence	0%
CNC(=O)c1ccc(-c2cnc3ncc(Cc4ccc5ncccc5c4)n3n2)cc1F	item: Nausea	gastric cancer patients	oral, 600 mg twice daily, expansion cohort, grade 3-4	–	patients with adverse event	11%
CC(C)(C(=O)N1CCOc2c(C#N)cncc2C1)C(F)F	item: Dermatitis	human	oral, 10 mg once daily, 14 days, multiple ascending dose	–	subjects with adverse event	12.5%
Cn1cc([C@H]2C[C@H]3CSC(N)=N[C@@]3(c3ccc(F)cc3F)CO2)cn1	–	mouse	subcutaneous, 10 mg/kg, 18 h	–	CSF concentration	not detected
Cc1ccc(Sc2ccccc2N2CCNCC2)c(C)c1	item: Thirst	healthy adult men	oral, 2.5 mg single dose	–	participants with TEAE	0%
CN1C[C@H](COc2nccc3c(NCc4ccco4)cc(Cl)nc23)OC1=O	–	C57BL/6 mice	oral, 30 mg/kg, 0.5 h	baseline: heart over plasma	tissue/plasma ratio	~0.75
COc1cc(C(=O)N2CCC3(CC2)CC(=O)c2c(cnn2C(C)C)C3)cc(-c2ccc(C(=O)O)cc2)n1	item: direct LDL cholesterol	human, fasting serum	1 mg every 12 h, day 13, adjusted geometric mean	baseline: baseline	percentage change from baseline	-5.2%
OC[C@H]1O[C@@H](c2ccc(F)c(Cc3cc4ccccc4s3)c2)[C@H](O)[C@@H](O)[C@@H]1O	–	Japanese patients, type 1 diabetes	oral, 25 mg/day, onset day 10	baseline: patients	hypoglycaemia-related adverse event	5%
C[C@@H](Oc1ccc(S(C)(=O)=O)cc1C(=O)N1C[C@@H]2C[C@]2(c2cc(C(F)(F)F)on2)C1)C(F)(F)F	LC-MS/MS	young human subjects, plasma	oral, 75 mg twice daily, steady state, multiple doses	–	Vz/F	383 L
[H]/N=C(/N)N[C@H]1[C@H](O)[C@@H](O)[C@H](O[C@@H]2O[C@@H](C)[C@](O)(C=O)[C@H]2O[C@@H]2O[C@@H](CO)[C@H](O)[C@@H](O)[C@@H]2NC)[C@@H](N/C(N)=N\[H])[C@@H]1O	starch gel membrane permeability	Gram-negative envelope surrogate	200 µM, 20 min, pH 7.4	–	amount permeated	0.27 nmol
Cn1cc(Nc2nccc(-c3ccc4c(c3)CN(C3COC3)CC[C@H]4NC(=O)c3cn(C(C)(C)C)nn3)n2)cn1	–	human, whole blood	300 mg twice daily, day 14	baseline: pre-dose baseline	NK cell count change	22.7%
CC1CCNc2c(C(=O)NC/C=C/S(C)(=O)=O)cccc21 (stereo not shown)	–	uninfected mouse, serum	300 mg/kg	–	serum BUN	27 mg/dL
C[C@@H]1CCO[C@H]2Cn3cc(C(=O)NCc4ccc(F)cc4F)c(=O)c(O)c3C(=O)N12	–	human paediatric patients, weight sample B to under sample C kg, plasma	oral, 20 mg film-coated tablet, 24 h, steady state, geometric mean, population PK post-hoc, N 2	–	trough concentration (C24)	303 ng/mL
CC(C)NCC(O)COc1cccc2ccccc12 (stereo not shown)	PAMPA	artificial membrane	10 µM, 4 h	–	permeability coefficient	> 1 ×10⁻⁶ cm/s
CCn1ccc2c([C@@](O)(CC)c3ccc(C(F)(F)F)nc3)n(C)nc2c1=O	–	rat Sprague-Dawley male, plasma	intravenous, 1 mg/kg	–	CL	15.3 ± 1.92 mL/min/kg
O=C(O)CCC(=O)O.[2H]C([2H])([2H])Oc1cc(C)c2[nH]ccc2c1CN1CC[C@@H](C2CC2)C[C@H]1c1ccc(C(=O)O)cc1	–	healthy Chinese subjects	oral, 400 mg, single ascending dose	–	subjects with elevated uric acid	0%
O=C(O)[C@H]1O[C@@H](Oc2ccc(/C=C/c3cc(O)cc(O)c3)cc2)[C@H](O)[C@@H](O)[C@@H]1O	–	human, plasma	–	–	samples above LOQ	95.6%

SMILES	assay	system	conditions	scale	measurement	result
CN(C)c1cc(NC(=O)CNC(C)(C)C)c(O)c2c1C[C@H]1C[C@H]3[C@H](N(C)C)C(O)=C(C(N)=O)C(=O)[C@@]3(O)C(O)=C1C2=O	starch gel membrane permeability	Gram-negative envelope surrogate	200 µM, 45 min, pH 7.4	–	amount permeated	1.96 nmol
CCc1c(-c2ccccc2)c(-c2ccccc2)nn1-c1ccccc1-c1cccc(OCC(=O)O)c1	–	Sprague-Dawley rat	intravenous, dose not given	–	clearance observed	13.8 mL/min/kg and 10.1 mL/min/kg and 10.7 mL/min/kg
O=C1CC[C@H](N2Cc3cc(N4CCN(CC5CCN(c6ccc([C@@H]7c8ccc(O)cc8CC[C@@H]7c7ccccc7)cc6)CC5)CC4)ccc3C2=O)C(=O)N1	radiolabelled mass balance	Sprague-Dawley rat, male, feces	oral, 20 mg/kg, 0 to 168 h	–	dose excreted	94.1%
CO[C@H]1C[C@@H]2CC[C@@H](C)[C@@](O)(O2)C(=O)C(=O)N2CCCC[C@H]2C(=O)O[C@H]([C@H](C)C[C@@H]2CC[C@@H](OC(=O)NCCOCCOCCOCCOCCOCCOCCOCCOCCC(=O)N3CCc4cc(Cn5nc(-c6ccc7oc(N)nc7c6)c6c(N)ncnc65)ccc4C3)[C@H](OC)C2)C[C@@H](O)[C@H](C)/C=C(\C)[C@@H](O)[C@@H](OC)C(=O)[C@H](C)C[C@H](C)/C=C/C=C/C=C/1C	–	human patients, plasma	intravenous, 12 mg, cycle 1 day 15, weekly dosing, mean	–	Cmax	423 nM
Cc1cc(NC2CCN(C(=O)OC3CCN(C(=O)/C=C/CN(C)C)C3)CC2)n2ncc(C(C)C)c2n1 (stereo not shown)	Phase I dose escalation CTCAE v4.0, item: urinary tract infection	patients with advanced solid tumours	dose not given, Total dosing grade 3 or higher	–	patients with adverse event	0%
CCc1nc(C(N)=O)c(Nc2ccc(N3CCC(N4CCN(C)CC4)CC3)c(OC)c2)nc1NC1CCOCC1	–	Japanese patients, plasma	oral, 40 mg, cycle 1 day 28, multiple doses, mean	–	AUCtau	2410 ng·h/mL
O=C(O)C=Cc1ccc(O[C@@H]2O[C@H](C(=O)O)[C@@H](O)[C@H](O)[C@H]2O)cc1	–	human plasma	mean	–	plasma concentration	2210 nM
C=CCN1CC(=O)N2[C@@H](Cc3ccc(O)cc3F)C(=O)N(Cc3cccc(N4CC(N5CCN(CC)CC5)C4)n3)C[C@@H]2N1C(=O)NCc1ccccc1	–	advanced solid tumour patients	oral, 20 mg twice daily, grade ≥3, dose-escalation	–	treatment-related ALT increased	0%
CC(C)C[C@H](NC(=O)CNC(=O)c1cc(Cl)ccc1Cl)B(O)O	item: Thrombocytopenia	human newly diagnosed multiple myeloma	oral, dose not given, maintenance, grade 3, onset cycle 17 or later	–	treatment-emergent adverse events	0%
CC(=O)NCc1cc2c(cc1F)C(=O)N(C1CCC(=O)NC1=O)C2 (stereo not shown)	–	cynomolgus monkey, male	oral, 0.3 mg/kg parent drug, 2 h	–	plasma concentration	0.28 ng/mL
CCn1ncc2c1-c1cnc(N)c(c1)O[C@H](C)c1cc(F)ccc1-c1nn(C)nc1C2	–	female athymic nude mice, sample B PDX	oral, 0.2 mg/kg once daily for 1 days, 12 h	–	unbound plasma trough concentration	2.5 ± 0.3 nM
COc1c(C)c2c(c(O[C@@H]3O[C@H](C(=O)O)[C@@H](O)[C@H](O)[C@H]3O)c1C/C=C(\C)CCC(=O)O)C(=O)OC2	–	healthy subjects, plasma	oral, 1 g mycophenolate mofetil, with: isavuconazole	–	Cmax, mean	31.7 ng/mL
COc1ccc2[nH]c([S+]([O-])Cc3ncc(C)c(OC)c3C)nc2c1 (stereo not shown)	–	human male	oral, dose not given, 2 h, after rifampicin	–	R/S ratio	0.76
CCOC(=O)c1cc(O)c(O)c(O)c1	–	human plasma	mean	–	plasma concentration	5.3 nM
O=C(Nc1nc2cccc(-c3ccc(CN4CCS(=O)(=O)CC4)cc3)n2n1)C1CC1	item: blood and lymphatic disorders	rheumatoid arthritis patients	oral, 300 mg once daily, 4 weeks, any relatedness	–	treatment-emergent adverse events	0%
COc1cc(/C=C/C(=O)O)ccc1O	–	human plasma	median	–	plasma concentration	715 nM
C=Cc1c(C)c2cc3nc(c4c5[nH]c(cc6nc(cc1[nH]2)C(C)=C6CC)c(C)c5C(=O)C4)[C@@H](CCC(=O)O)[C@@H]3C	absorbance spectroscopy	methanol	10 µM, red-shifted range	–	absorbance maximum	666 nm
CCc1cc(C(=O)NC)c2nccc(N3CCc4c(cc(Cn5ccnc5)cc4-c4cn(C)nc4C(F)(F)F)C3=O)c2c1	item: Neut	Sprague Dawley rat	oral, 50 mg/kg once daily, 7 days	baseline: vehicle	change in clinical chemistry or haematology parameter	-6.64%
O=C(COc1ccc(Cl)cc1)NC12CC(c3nnc([C@H]4C[C@@H](OC(F)(F)F)C4)o3)(C1)C2	–	human both sexes	oral, 400 mg single dose	–	postural dizziness participants	16.7%
Cc1c2oc3c(C)ccc(C(=O)N[C@@H]4C(=O)N[C@H](C(C)C)C(=O)N5CCC[C@H]5C(=O)N(C)CC(=O)N(C)[C@@H](C(C)C)C(=O)O[C@@H]4C)c3nc-2c(C(=O)N[C@@H]2C(=O)N[C@H](C(C)C)C(=O)N3CCC[C@H]3C(=O)N(C)CC(=O)N(C)[C@@H](C(C)C)C(=O)O[C@@H]2C)c(N)c1=O	LC-MS	children with cancer, plasma	dose not given, 22 h	–	median plasma concentration	1.8 µg/L
N#Cc1ccc2c(c1)[C@H]1CCCN(C(=O)c3ccc4[nH]cnc4c3)[C@H]1C2	–	human males	10 mg, end of trial	–	SHBG level	35.9 nmol/L
CC(=O)N(C)[C@H]1CCN(C(=O)c2cnc3c(c2)C[C@](C)(c2ccc(F)cc2)N3)C1	item: liver function test increased	human	oral, 30 mg once daily	–	adverse event duration	22 days
CO[C@@H]1[C@H](OC(=O)N2CC(CCN3CCOCC3)C2)CC[C@]2(CO2)[C@H]1[C@@]1(C)O[C@@H]1CC=C(C)C	–	humans	subcutaneous, 1.8 mg twice weekly for 4 weeks, day 28	baseline: baseline	international normalized ratio	0.01 ± 0.04
O=C(O)c1ccccc1	–	human plasma	mean, both sexes	–	plasma concentration	61500 nM
C=CC(=O)N1CCC(c2ccc(C(N)=O)c(-c3ccc(Oc4ccccc4)cc3)n2)CC1	–	relapsed/refractory mantle cell lymphoma patients	oral, dose not given, part, all doses, CTCAE v4.03	–	TEAE rate	50%
O=S(=O)(O)Oc1ccc(CCO)cc1O	–	human plasma	mean	–	plasma concentration	31.9 nM
C[C@H]1CN(C(=O)CC#N)[C@]12CCN(c1ncnc3[nH]ccc13)C2	–	healthy human	oral, 3 mg single	–	subjects with serious TEAEs	0%

Repeated from above:
SMILES	assay	system	conditions	scale	measurement	result
CO[C@H]1C[C@@H]2CC[C@@H](C)[C@@](O)(O2)C(=O)C(=O)N2CCCC[C@H]2C(=O)O[C@H]([C@H](C)C[C@@H]2CC[C@@H](OC(=O)NCCOCCOCCOCCOCCOCCOCCOCCOCCC(=O)N3CCc4cc(Cn5nc(-c6ccc7oc(N)nc7c6)c6c(N)ncnc65)ccc4C3)[C@H](OC)C2)C[C@@H](O)[C@H](C)/C=C(\C)[C@@H](O)[C@@H](OC)C(=O)[C@H](C)C[C@H](C)/C=C/C=C/C=C/1C	–	human patients, plasma	intravenous, 12 mg, cycle 1 day 15, weekly dosing, mean	–	Cmax	423 nM
Cc1cc(-c2nccc3c2ccn3CC(=O)Nc2ccc(-c3cnccn3)cn2)ccn1	–	human, plasma	oral, 20 mg once daily, day 1, geometric mean	–	AUCtau	1.35 µM·h
C[C@@H]1COCCN1c1cc(C2([S@](C)(=N)=O)CC2)nc(-c2cc[nH]c3nccc2-3)n1	–	Japanese advanced solid tumour patients	oral, 240 mg twice daily, CTCAE grade ≥3	–	Diarrhea incidence	0%
C=CCN1CC(=O)N2[C@@H](Cc3ccc(O)cc3F)C(=O)N(Cc3cccc(N4CC(N5CCN(CC)CC5)C4)n3)C[C@@H]2N1C(=O)NCc1ccccc1	–	advanced solid tumour patients	oral, 20 mg twice daily, grade ≥3, dose-escalation	–	treatment-related ALT increased	0%
C[C@@H](Oc1ccc(S(C)(=O)=O)cc1C(=O)N1C[C@@H]2C[C@]2(c2cc(C(F)(F)F)on2)C1)C(F)(F)F	LC-MS/MS	young human subjects, plasma	oral, 75 mg twice daily, steady state, multiple doses	–	Vz/F	383 L
Cn1c(=O)[nH]c(=O)c2[nH]cnc21	–	human, both sexes, cerebrospinal fluid	–	–	samples above LOQ	0%
